Experimental data from different studies.
Sample: plasma

Structure (SMILES) = CCCC[C@H](NC(C)=O)C(=O)N[C@H]1CCC(=O)NC[C@@H](C(=O)N[C@@H](Cc2c[nH]c3ccccc23)C(N)=O)NC(=O)[C@H](CCCNC(=N)N)NC(=O)[C@@H](Cc2ccccc2)NC(=O)[C@H](Cc2c[nH]cn2)NC1=O; host = human; route = subcutaneous; dose = 5 mg; setting = single dose, healthy volunteers; measurement = Vd/F; value = 488 L
Structure (SMILES) = O=C(c1cccnc1-c1ccncc1)N1CCC(O)(Cc2ccccc2)CC1; host = human; route = oral; dose = 300 mg; setting = healthy volunteers; measurement = Vd/F; value = 1360 L
Structure (SMILES) = O=C(c1nc2n(n1)[C@H](c1ccccc1)C[C@@H]2F)C1CC1; host = human; route = oral; dose = 225 mg; setting = single dose, fasted, healthy volunteers; measurement = Vd/F; value = 82.3 L
Structure (SMILES) = Cn1cc(-c2cnc3cnn(S(=O)(=O)c4cnc5ccc(-c6cnn(C)c6)cn45)c3c2)cn1; host = male human; route = oral; dose = 300 mg; setting = single dose, fasted, healthy volunteers; measurement = Vd/F; value = 462 L
Structure (SMILES) = COc1cccc(OCCCN)c1-c1cc(Nc2cnc(C#N)cn2)n[nH]1; host = human; route = intravenous; dose = 80 mg/m²; setting = patients, infusion; measurement = Vd; value = 1000 L
Structure (SMILES) = CCOc1ccc(Cc2cc([C@@H]3S[C@H](CO)[C@@H](O)[C@H](O)[C@H]3O)c(OC)cc2C)cc1; host = human; route = oral; dose = 10 mg/day; setting = multiple doses; measurement = Vd/F; value = 38.8 L
Structure (SMILES) = CCOc1ccc(Cc2cc([C@]34OC[C@](CO)(O3)[C@@H](O)[C@H](O)[C@H]4O)ccc2Cl)cc1; host = human; route = oral; dose = 15 mg; setting = single dose; measurement = Vd/F; value = 240 L
Structure (SMILES) = COc1cccc(-c2ccc(NC(=O)C3=C(C(=O)O)CCC3)c(F)c2)c1; host = male human; route = oral; dose = 40 mg; setting = single dose, fasted, healthy volunteers; measurement = Vd/F; value = 12.5 L

Excerpt of the above:
Structure (SMILES) = COc1cccc(OCCCN)c1-c1cc(Nc2cnc(C#N)cn2)n[nH]1; host = human; route = intravenous; dose = 80 mg/m²; setting = patients, infusion; measurement = Vd; value = 1000 L
